Experimental data from different studies.
Numbered parts are unrelated; each lists some results of a single study.

Sample 1 — method: RNA Bind-n-Seq; form: RNA; matrix: in vitro; concentration: 365 nM; relative to: no-protein control; reading: higher = stronger binding
Target: RNA binding protein fox-1 homolog 2, RRM domain, GST-SBP tag (RBFOX2, Homo sapiens, UniProt O43251-10, residues 100-194)
Setting: natural RNA segment, single round, ends assumed
Construct (chain): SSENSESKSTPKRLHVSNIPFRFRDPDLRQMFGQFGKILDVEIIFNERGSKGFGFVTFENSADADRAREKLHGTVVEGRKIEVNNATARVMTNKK
| Sequence | RBNS enrichment (R) |
| --- | --- |
| GGGAGUUCUACAGUCCGACGAUCGAACUAAAUGAAGGUUAAAACAUGCUUUAGAAAAAUGCACUGAUCUCCGCACUGUGUGUACAGUAUUGGACAAAGGAUUUAUUCAUUUUGUUGCAUUAUUUUGAAUAUUGUGGAAUUCUCGGGUGCCAA | 0.517 |
| GGGAGUUCUACAGUCCGACGAUCUUGCUGAGACUCGGGGUACCGUUCUGCUGACCCAGCUCCCUUUAGUCACGUUUGCUUGGCUCUGGUACCAAAUAGUUGGGAUUACCGAAGAGUCCCCUUCCUUGCGUGUCUGGAAUUCUCGGGUGCCAA | 0.331 |
| GGGAGUUCUACAGUCCGACGAUCCUUAAUGAACAGUGUCUAUACAUUUGCAUACACACACCCCCACCCCAGAGUGUUCUCAGUAUGUCAGAGAAAGUGCCACAGCAUUAGGACGGGAGCUUGGAGAACGUUUUUGGAAUUCUCGGGUGCCAA | 0.77 |

Sample 2 — method: protein-binding microarray; form: double-stranded DNA, one strand shown; matrix: in vitro; concentration: 2200 nM top; setting: 60-bp whole probe; with: salmon DNA 0.4 mg/ml; relative to: random background probes; reading: higher = stronger binding
Target: Interferon regulatory factor 7, full length, phosphomimetic (IRF7, Homo sapiens, UniProt Q92985, residues 1-503, S471D/S472D/S475D/S476D/S477D/S483D/S484D/S487D)
Residues (chain): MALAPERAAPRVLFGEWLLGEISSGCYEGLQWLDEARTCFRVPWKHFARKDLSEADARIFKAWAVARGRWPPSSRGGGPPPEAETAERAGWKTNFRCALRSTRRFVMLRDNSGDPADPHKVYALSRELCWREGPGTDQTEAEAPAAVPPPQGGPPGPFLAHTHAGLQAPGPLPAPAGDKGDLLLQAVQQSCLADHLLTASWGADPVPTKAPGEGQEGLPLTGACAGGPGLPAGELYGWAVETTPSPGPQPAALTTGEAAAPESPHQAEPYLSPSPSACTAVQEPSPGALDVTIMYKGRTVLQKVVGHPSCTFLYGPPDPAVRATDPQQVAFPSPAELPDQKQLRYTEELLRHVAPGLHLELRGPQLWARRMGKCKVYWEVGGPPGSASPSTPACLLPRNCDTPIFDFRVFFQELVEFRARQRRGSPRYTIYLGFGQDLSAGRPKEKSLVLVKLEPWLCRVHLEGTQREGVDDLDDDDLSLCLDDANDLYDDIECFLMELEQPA
| Sequence | fitted relative affinity [z-score] |
| --- | --- |
| GCCTAGCACTTTGGACTGGACTATCGGTTAGTGCTAGTCTTGATTCGCTTGACGCTGCTG | 0.103 |
| GCCTAGCACGACGGTTTCCACTATCGGGACGTGCTAGTCTTGATTCGCTTGACGCTGCTG | 2.12 |
| GCCTAGCACTCAAACTTAGTTTTCAAACTGTGCTAGGTCTTGATTCGCTTGACGCTGCTG | -0.105 |

Sample 3 — method: protein-binding microarray; form: double-stranded DNA, one strand shown; matrix: in vitro; concentration: 0.8 µM; setting: whole 60-bp probe, no competitor; reading: higher = stronger binding
Target: Centromere-binding protein 1, full length, N-terminal tag (CBF1, Saccharomyces cerevisiae, UniProt P17106, residues 1-351)
UniProt P17106, sequence (whole entry, looked up): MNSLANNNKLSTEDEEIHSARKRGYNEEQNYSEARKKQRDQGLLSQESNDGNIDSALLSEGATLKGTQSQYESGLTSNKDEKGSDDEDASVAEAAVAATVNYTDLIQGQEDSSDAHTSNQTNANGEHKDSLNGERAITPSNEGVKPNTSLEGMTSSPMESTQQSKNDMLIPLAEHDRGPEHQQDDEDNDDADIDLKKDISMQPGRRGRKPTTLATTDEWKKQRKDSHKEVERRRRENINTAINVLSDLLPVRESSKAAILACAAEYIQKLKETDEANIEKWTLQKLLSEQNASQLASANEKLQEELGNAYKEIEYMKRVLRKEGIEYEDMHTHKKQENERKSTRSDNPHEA
| Sequence | fluorescence intensity [a.u.] |
| --- | --- |
| GAAAGGTAGCCGGAAAACGCACGAATCTAAGACTAGGTCTTGATTCGCTTGACGCTGCTG | 478 |
| CTAAACGATACCGAACATGTCACCTTGCATACCTTCGTCTTGATTCGCTTGACGCTGCTG | 513 |
| CTAAGCCGGTGTAGCCACGTGTTAAATCTTGACTTCGTCTTGATTCGCTTGACGCTGCTG | 3950 |
| CTATAACAAAGAAGGTGACTTGCGCTTAATTAGTTCGTCTTGATTCGCTTGACGCTGCTG | 550 |

Other studies, line by line
| Molecule | target | test | system | setting | scale | measurement | result |
| --- | --- | --- | --- | --- | --- | --- | --- |
| PhoQ, residues 284 288 289 292 302 303 SLKLQV | PhoP, residues 12 14 15 18 19 FWNTL (Escherichia coli, UniProt P23836) | Sort-seq, measured: YFP reporter | E. coli | PhoQ-PhoP variant library, with: 10 µM Mg2+ | relative to: high Mg2+ state, higher = stronger signaling | fold induction | 8.7 |

Some of these lines once more (sample 1):
| Sequence | RBNS enrichment (R) |
| --- | --- |
| GGGAGUUCUACAGUCCGACGAUCUUGCUGAGACUCGGGGUACCGUUCUGCUGACCCAGCUCCCUUUAGUCACGUUUGCUUGGCUCUGGUACCAAAUAGUUGGGAUUACCGAAGAGUCCCCUUCCUUGCGUGUCUGGAAUUCUCGGGUGCCAA | 0.331 |
